Assay results from different studies.
Each numbered part is a random draw from the data of one study; scales do not carry over between parts.

Set 1 — method: aptamer microarray, sandwich; molecule type: DNA with 2'F-ANA; matrix: in vitro; tested at: 200 nM; together with: Cy3 exosite-II aptamer, 400 nM; reading: higher = stronger binding; strand: GGTTGGTGTGGTTGG
Target: Prothrombin, mature alpha-thrombin (F2, Homo sapiens, UniProt P00734)
Notes: whole 15-mer aptamer, many near background
| Modification | mean fluorescence intensity [a.u.] |
| --- | --- |
| 2'F-ANA at 1 2 3 6 7 9 13 15 | 131 |
| 2'F-ANA at 1 3 5 7 8 9 11 12 | 158 |
| 2'F-ANA at 1 2 4 5 6 8 10 12 14 15 | 51.8 |
| 2'F-ANA at 2 5 7 11 13 14 | 106 |
| 2'F-ANA at 3 4 5 6 10 13 14 15 | 67.7 |
| 2'F-ANA at 2 3 7 10 13 14 15 | 297 |
| 2'F-ANA at 1 2 3 4 6 8 9 11 13 14 15 | 234 |
| 2'F-ANA at 1 2 3 4 5 6 8 9 11 12 14 | 45.6 |
| 2'F-ANA at 1 3 5 6 7 8 9 11 12 13 15 | 78.2 |
| 2'F-ANA at 1 3 4 6 7 11 12 15 | 282 |
| 2'F-ANA at 1 4 5 7 8 11 12 15 | 91.2 |
| 2'F-ANA at 1 2 3 4 5 6 10 12 13 | 49 |
| 2'F-ANA at 3 5 6 10 12 13 14 | 46.9 |

Set 2 — method: RNA Bind-n-Seq; molecule type: RNA; matrix: in vitro; tested at: 20 nM; notes: 6-mer, flanks averaged, single round; together with: 150 mM LiCl; baseline: input library; reading: higher = stronger binding
Target: TAR DNA-binding protein 43, full length, His tag (TARDBP, Homo sapiens, UniProt Q13148, residues 1-414)
| Strand | 6-mer enrichment (R) |
| --- | --- |
| UCAGCU | 0.844 |
| AUAUCA | 0.851 |
| UUGAUA | 0.957 |
| ACGUCG | 0.965 |
| CCUUCA | 0.93 |
| CACCGC | 0.981 |
| CUGGUC | 0.887 |
| CACAUU | 0.945 |
| CGAAGG | 0.896 |
| GUAGAG | 1.16 |
| UUGAUU | 1 |
| UAUUUA | 1.13 |
| CUCUCC | 0.975 |
| ACCGGA | 0.851 |
| GUAAUG | 1.06 |
| GAUGCG | 1.08 |
| UUUCUC | 1.02 |
| GCCCCG | 1.1 |
| CUGCCC | 1.05 |
| AUAACC | 0.866 |
| CCUAUC | 0.897 |
| CCCGAU | 0.942 |
| GCGAAA | 0.875 |
| CUCCCU | 1.15 |

Set 3 — method: protein binding microarray; molecule type: double-stranded DNA, one strand shown; matrix: in vitro; tested at: not given; baseline: not given; reading: higher = stronger binding
Target: Histone acetyltransferase KAT6A, winged helix 2, GST fusion (KAT6A, Homo sapiens, UniProt Q92794, residues 85-181)
Notes: 8-mer, flanks averaged, mean of 2 arrays, mostly near background
Construct (chain): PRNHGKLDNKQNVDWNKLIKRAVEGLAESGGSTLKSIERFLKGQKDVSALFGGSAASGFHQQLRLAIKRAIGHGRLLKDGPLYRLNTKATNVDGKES
| Strand | E-score |
| --- | --- |
| CAATCTGG | 0.106 |
| AACAAACC | 0.0812 |
| CGTTACTC | 0.0483 |
| GTAGCTTA | 0.0328 |
| ACCTTCCC | -0.0646 |
| CATTAACC | 0.0697 |
| ATTCTCTA | -0.0532 |
| ATTAGGTG | -0.137 |
| GGACTTGA | -0.124 |
| ACCTTACC | -0.0357 |
| CGATTGCA | 0.0183 |
| CCGAGGTC | 0.0949 |
| CGTTACGA | 0.0804 |
| ACACTTGG | -0.0682 |
| GAACTTAC | 0.0923 |
| GTATTCTA | 0.06 |
| ACTACACC | -0.0435 |

Set 4 — method: universal PBM; molecule type: double-stranded DNA, one strand shown; matrix: in vitro; tested at: not given; reading: higher = stronger binding
Target: Sal-like protein 4, full length isoform B (SALL4, Homo sapiens, UniProt Q9UJQ4-2, residues 1-616)
Notes: 8-mer, flanks averaged, mean of replicates
Residues (chain): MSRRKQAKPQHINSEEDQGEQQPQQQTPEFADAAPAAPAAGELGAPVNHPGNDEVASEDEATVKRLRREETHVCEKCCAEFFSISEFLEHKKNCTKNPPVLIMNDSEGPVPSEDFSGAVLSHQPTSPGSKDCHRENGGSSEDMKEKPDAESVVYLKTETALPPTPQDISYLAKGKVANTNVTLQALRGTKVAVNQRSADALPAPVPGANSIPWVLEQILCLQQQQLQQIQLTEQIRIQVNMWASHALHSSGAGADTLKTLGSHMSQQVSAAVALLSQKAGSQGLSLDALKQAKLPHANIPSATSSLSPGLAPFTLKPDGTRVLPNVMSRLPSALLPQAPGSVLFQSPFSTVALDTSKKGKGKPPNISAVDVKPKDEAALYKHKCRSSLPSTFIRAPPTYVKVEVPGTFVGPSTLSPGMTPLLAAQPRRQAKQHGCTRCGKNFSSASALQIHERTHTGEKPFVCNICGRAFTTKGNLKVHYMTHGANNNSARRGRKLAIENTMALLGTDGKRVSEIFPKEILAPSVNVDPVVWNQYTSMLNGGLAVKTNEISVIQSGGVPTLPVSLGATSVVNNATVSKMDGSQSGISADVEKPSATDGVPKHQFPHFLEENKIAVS
| Strand | E-score |
| --- | --- |
| GCCGGTCA | -0.272 |
| GGTCGGAA | -0.166 |
| CCTAGCTC | -0.303 |
| CTCTGCAC | -0.146 |
| CCAGTCAA | -0.118 |
| ACGGGAAC | -0.139 |
| ACTTATAG | 0.143 |
| ACAAAGCG | 0.0326 |
| GTTTCGCA | -0.063 |
| TATCAACA | 0.212 |
| ACTACCGA | -0.144 |
| AGAATTCC | -0.0258 |
| ATTTGCTC | 0.0783 |
| CTAGAAAG | 0.0277 |
| GATGCTTA | 0.0106 |
| AAGACAGG | 0.0138 |
| CTGGTTGA | -0.219 |
| AGGTGCAA | -0.00863 |
| AGCGCAAT | 0.137 |
| CATGTTAC | 0.0978 |
| CCTGACAC | -0.19 |
| AACATTAC | 0.217 |

Set 5 — method: protein-binding microarray; molecule type: double-stranded DNA, one strand shown; matrix: in vitro; tested at: 940 nM top; notes: 60-bp whole probe; together with: salmon DNA 0.4 mg/ml; baseline: random background probes; reading: higher = stronger binding; shared flanks, not repeated: GCCTAGCAC … GTCTTGATTCGCTTGACGCTGCTG
Target: Interferon regulatory factor 5, full length, phosphomimetic (IRF5, Homo sapiens, UniProt Q13568-2, residues 1-514, S451D/S453D/S456D/S462D)
| Strand | fitted relative affinity [z-score] |
| --- | --- |
| GACGGACTGGGGTTTAGGGACGTGCTA | -0.0936 |
| TCAGTTTTGAGTTTTCCACTGTGCTAG | 0.559 |
| TCATCATTTTTTTTCATACTGTGCTAG | 1.5 |
| TTTTTGGATGCTGGAAAAATGTGCTAG | -0.123 |
| GACCGTTTCGGTCTCGGGACGTGCTAG | 6.84 |
| GACGGTTTCGGTCACGGGACGTGCTAG | 12.8 |
| GACGATATCGGACTGGGGACGTGCTAG | -0.141 |
| GGCCCAGGAGGAGGCCCCTCGTGCTAG | -1.04 |
| TCAGCTCCAGGTTCTCTGACTGTGCTA | -0.122 |
| GACGGTATCGACAATGGGGACGTGCTA | 3.59 |
| ATATATGTATATATGTGTATGTGCTAG | -0.111 |

Set 6 — method: RNA Bind-n-Seq; molecule type: RNA; matrix: in vitro; tested at: 365 nM; baseline: no-protein control; reading: higher = stronger binding
Target: RNA binding protein fox-1 homolog 2, RRM domain, GST-SBP tag (RBFOX2, Homo sapiens, UniProt O43251-10, residues 100-194)
Notes: natural RNA segment, single round, ends assumed
Shared flanks, not repeated: GGGAGUUCUACAGUCCGACGAUC … UGGAAUUCUCGGGUGCCAA
Target sequence (chain): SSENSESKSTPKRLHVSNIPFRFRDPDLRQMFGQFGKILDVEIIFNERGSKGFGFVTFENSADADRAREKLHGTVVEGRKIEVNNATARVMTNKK
| Strand | RBNS enrichment (R) |
| --- | --- |
| AAUUUAAUGUUUUGUAGUGAUGAAUAUGAAAAUGCCUGUCAUCUUUAGAUCAUUGAAAGGUUAACUAACAUGAGAAUUUCAGAGCAAAUUCCAAUACUCUUUUAAAAAGC | 0.941 |
| ACGAGGGGCCUGCUGUUUGCCACCCAGCCCAACUUCCUGUUGCUGGCCCCUGCCCUCUGCCCUUUUGCCUGUCCUCAGGCCGCUGGAACAAAGGAAGGACAGCUCAUUCC | 0.381 |
| CAAGAAAUACCCGCUCCUCACCUACUCCCUCAUCCUACCAAGGUGCCUGAAAAUGUUCAAGACUUAUGUUCAGGGUGGGAUGAUGGAACCGAGGGCUUCAUCAAAGUGAG | 0.465 |
| CUAACAUGCCCUCUCUGGAAAGCAUAUGUAUAUAACAUGUGUCAUGUCCUUUGGAAACCUGGUCACCUGGUGAAAACCCUUGGGAUUCUUCCCUGGGCAUGACUGAUGAC | 0.196 |
| GGGUGAUCCAAUUAUAGGGCUGGGGCAACCCUGCUUUGGCCACCCUCAUUUACAAACUUAGGUUGGGAGCUUGGGUUUCCUGUCUCACUUCCAAAAGCCUUCAAGAUGGC | 0.29 |
| CACCAUAGAGUUCACACAAAAUUUUAGGCAGUGUUUCAAGAAGCACUCUUAUGUGUUGUUCUUUCAGCCCAUGCUCCAGGUCACCGGUUUUUAGGUAAACAUGACAUGAC | 0.35 |
| UUUCUGACAGGCGGGUGCCAGUCUGCACUGCCCGCAGUGAGUGCAGGUUCUGUUUUUGAGUUUGGUAGUUUGCAAAGUGAGUACACUGAAGAAACGUUAGUUAGUGGGGC | 0.893 |
| AUUCUCUUGAUAAAUUUGUACAUCAGACCGGGUCACCAGCUAUGAUGCAGAACGCCAGAUUUUUGAAUCUCAAGUAACUUUCUGUGGUGCUGGACAAAUUGACUUAAUUC | 0.355 |

Repeated from above (set 2):
| Strand | 6-mer enrichment (R) |
| --- | --- |
| CGAAGG | 0.896 |
| GUAGAG | 1.16 |
| UUGAUU | 1 |
| UAUUUA | 1.13 |
| CUCUCC | 0.975 |
| ACCGGA | 0.851 |
| GUAAUG | 1.06 |
| GAUGCG | 1.08 |
| UUUCUC | 1.02 |
| GCCCCG | 1.1 |
| CUGCCC | 1.05 |
| AUAACC | 0.866 |
